Measurements gathered from unrelated publications.
Compare with care: the assays were run in different laboratories. ± marks the error that the study gave.
Target: Cytochrome P450 1A2 (CYP1A2, Homo sapiens, UniProt P05177)
UniProt P05177, sequence (whole entry, looked up): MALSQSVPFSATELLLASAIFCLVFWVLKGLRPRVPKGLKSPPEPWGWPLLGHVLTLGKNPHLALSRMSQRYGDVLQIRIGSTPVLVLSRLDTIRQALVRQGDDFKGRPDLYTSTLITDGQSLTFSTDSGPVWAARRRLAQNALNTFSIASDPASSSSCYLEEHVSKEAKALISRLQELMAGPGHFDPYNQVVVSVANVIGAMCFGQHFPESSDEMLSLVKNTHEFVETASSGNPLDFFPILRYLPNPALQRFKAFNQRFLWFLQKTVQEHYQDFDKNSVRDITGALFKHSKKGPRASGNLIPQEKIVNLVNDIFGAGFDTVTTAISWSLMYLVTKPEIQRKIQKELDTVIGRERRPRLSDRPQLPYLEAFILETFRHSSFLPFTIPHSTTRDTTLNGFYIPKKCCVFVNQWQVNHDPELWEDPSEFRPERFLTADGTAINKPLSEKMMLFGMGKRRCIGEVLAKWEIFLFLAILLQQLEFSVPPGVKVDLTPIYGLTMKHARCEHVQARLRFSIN

| SMILES | assay | test system | setting | IC50 |
| --- | --- | --- | --- | --- |
| O=C(O)/C=C/c1ccccc1 | enzyme activity, inhibitor | – | – | > 337 µM |
| COc1ccc2oc(-c3ccccc3)c(O)c(=O)c2c1 | enzyme activity, inhibitor, LC-MS/MS, refers to: acetaminophen | human liver microsomes | 30 min, pH 7.4, added: phenacetin | 2.92 ± 0.36 µM |
| C=CCn1c(=O)c2cnc(Nc3ccc(N4CCN(C)CC4)cc3)nc2n1-c1ccc2c(n1)[C@@](O)(CC)CC2 | inhibitor | – | – | 50 µM |
| COc1ccc(Cc2nc(NC(=O)C34CC5CC(CC(C5)C3)C4)n(C)c2Cc2ccc(OC)c(OC)c2)cc1 | – | – | – | > 200 µM |
| COc1c(-c2ccccc2)oc2ccccc2c1=O | enzyme activity, inhibitor, LC-MS/MS, refers to: acetaminophen | human liver microsomes | 30 min, pH 7.4, added: phenacetin | 1.02 ± 0.04 µM |
| Cc1cc(O[C@@H]2CCOC2)cc(C(=O)Nc2nc(C)cs2)n1 | inhibitor | – | – | > 30 µM |
| Cc1nc(-c2cnc(NC(C)C)n(C)c2=O)ccc1Oc1ccnc(-c2cnn(C)c2)c1 | metabolism-dependent inhibition, inhibitor | – | 30 min preincubation with NADPH | > 100 µM |
| Cc1cccnc1C(=O)Nc1ccc(N2C(=O)c3cccc(Cl)c3C2=O)c(Cl)c1 | enzyme activity, inhibitor | – | – | > 30 µM |
| COc1ccc2oc(-c3ccccc3)c(OC)c(=O)c2c1 | enzyme activity, inhibitor, LC-MS/MS, refers to: acetaminophen | human liver microsomes | 30 min, pH 7.4, added: phenacetin | 5.55 ± 0.46 µM |
